Measurements gathered from unrelated publications.
Each numbered part is a random draw from the data of one study; scales do not carry over between parts.

Sample 1
Target: Sal-like protein 4, full length isoform B (SALL4, Homo sapiens, UniProt Q9UJQ4-2, residues 1-616)
Method: universal PBM
Molecule type: double-stranded DNA, one strand shown
Medium: in vitro
Concentration: not given
Notes: 8-mer, flanks averaged, mean of replicates
Direction: higher = stronger binding
Sequence	E-score
GAGGTTCC	-0.125
ACGCTTGC	-0.133
CCTCACGA	-0.177
GCGTATAC	0.121
AACCTTGC	-0.0994
AGGTTGGA	-0.0492
CGCACCAG	-0.241
GCACTCTA	-0.0336

Sample 2
Target: Centromere-binding protein 1, full length, His-tagged (CBF1, Saccharomyces cerevisiae, UniProt P17106, residues 1-351)
Sequence of UniProt P17106 (whole entry, looked up): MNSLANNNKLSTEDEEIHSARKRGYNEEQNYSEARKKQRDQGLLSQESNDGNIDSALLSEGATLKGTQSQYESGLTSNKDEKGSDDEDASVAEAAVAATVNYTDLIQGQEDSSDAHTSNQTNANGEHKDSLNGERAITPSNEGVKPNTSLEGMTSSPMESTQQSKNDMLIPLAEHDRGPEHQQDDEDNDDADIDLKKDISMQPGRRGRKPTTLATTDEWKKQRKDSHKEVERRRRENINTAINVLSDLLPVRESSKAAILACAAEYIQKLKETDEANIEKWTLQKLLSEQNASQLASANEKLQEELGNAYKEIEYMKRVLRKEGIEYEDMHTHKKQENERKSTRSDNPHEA
Method: competition protein-binding microarray
Molecule type: double-stranded DNA, one strand shown
Medium: in vitro
Concentration: 2 µM
Notes: whole 60-bp probe, lowest competitor level
Together with: Pho4 competitor, 0.05 µM
Direction: higher = stronger binding
Sequence	fluorescence intensity [a.u.]
CTTCTGTAAATTTGATTAGTGGGTGGACGCGCCCCGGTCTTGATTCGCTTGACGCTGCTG	79
TGCGCAACAACTTTTCACGTGACTTTATGTCTAGAAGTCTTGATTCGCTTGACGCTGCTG	7590
CTTCTGTAAATTTGTCACAATACTTGACGCGCCCCGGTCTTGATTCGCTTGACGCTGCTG	108
CGAAGATTGCCGCGATCCGTGACTCGAAGCTACACCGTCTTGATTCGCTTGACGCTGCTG	101
AATATTTCGTCGAGTCACGTAAGTGCAAGGTAATAAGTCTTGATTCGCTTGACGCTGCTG	101
CAGCAAGACCGGAAACACGTTGTTGGGTAAATACTTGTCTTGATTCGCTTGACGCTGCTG	156
TACCACCACCAAGAGAATGTGTGAGCTGGAAACCTTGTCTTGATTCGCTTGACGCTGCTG	63.6
TTCTTTTCCCTTTAACATGTGGAGCATAGCAGGCTCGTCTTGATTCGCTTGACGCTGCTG	89.5
AATTTTTACGCTCCACACGTCATCGACATCTAAATAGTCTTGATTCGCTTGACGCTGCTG	96.2

Sample 3
Target: Histone acetyltransferase KAT6A, winged helix 1, GST fusion (KAT6A, Homo sapiens, UniProt Q92794, residues 1-85)
Method: protein binding microarray
Molecule type: double-stranded DNA, one strand shown
Medium: in vitro
Concentration: not given
Notes: 8-mer, flanks averaged, mean of 2 arrays, mostly near background
Reference: not given
Direction: higher = stronger binding
Construct (chain): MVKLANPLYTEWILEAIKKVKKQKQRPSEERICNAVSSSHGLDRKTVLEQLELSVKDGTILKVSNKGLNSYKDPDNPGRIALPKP
Sequence	E-score
AATATTAC	0.115
CAACGACC	-0.0535
AGCTTGTG	-0.224
GACTGCCC	0.0245
CGTATTTA	0.024
GAACCGTA	0.248
ACAATTGA	-0.065
CCCTCTCG	-0.0437

Mixed results
Substance	target	test	system	conditions	scale	endpoint	value
PhoQ, residues 284 288 289 292 302 303 NLMGRA	PhoP, residues 12 14 15 18 19 VQALL (Escherichia coli, UniProt P23836)	Sort-seq, item: YFP reporter	E. coli	PhoQ-PhoP variant library, together with: 10 µM Mg2+	reference: high Mg2+ state, higher = stronger signaling	fold induction	11

Repeated from above (sample 3):
Sequence	E-score
ACAATTGA	-0.065
